Measured values gathered from unrelated publications.
Numbered parts are unrelated; each lists some results of a single study. Several values in a cell are separate wells, animals, samples, runs or records.
UniProt P32298, sequence (whole entry, looked up): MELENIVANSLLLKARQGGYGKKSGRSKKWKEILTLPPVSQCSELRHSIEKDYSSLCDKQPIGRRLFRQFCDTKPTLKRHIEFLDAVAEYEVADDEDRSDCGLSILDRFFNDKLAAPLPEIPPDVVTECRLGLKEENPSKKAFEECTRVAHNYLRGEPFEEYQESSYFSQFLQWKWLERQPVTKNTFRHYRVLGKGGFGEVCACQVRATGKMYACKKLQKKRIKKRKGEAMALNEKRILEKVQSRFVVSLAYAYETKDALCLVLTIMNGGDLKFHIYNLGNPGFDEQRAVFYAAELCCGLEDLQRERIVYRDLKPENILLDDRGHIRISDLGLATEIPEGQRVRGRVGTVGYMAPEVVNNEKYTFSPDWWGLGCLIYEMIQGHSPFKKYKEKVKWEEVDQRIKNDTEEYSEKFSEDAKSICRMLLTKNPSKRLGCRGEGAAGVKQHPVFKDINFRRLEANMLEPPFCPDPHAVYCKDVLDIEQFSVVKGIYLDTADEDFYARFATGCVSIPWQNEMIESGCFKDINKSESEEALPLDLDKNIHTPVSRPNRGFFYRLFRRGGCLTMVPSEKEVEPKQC
UniProt P51813, sequence (whole entry, looked up): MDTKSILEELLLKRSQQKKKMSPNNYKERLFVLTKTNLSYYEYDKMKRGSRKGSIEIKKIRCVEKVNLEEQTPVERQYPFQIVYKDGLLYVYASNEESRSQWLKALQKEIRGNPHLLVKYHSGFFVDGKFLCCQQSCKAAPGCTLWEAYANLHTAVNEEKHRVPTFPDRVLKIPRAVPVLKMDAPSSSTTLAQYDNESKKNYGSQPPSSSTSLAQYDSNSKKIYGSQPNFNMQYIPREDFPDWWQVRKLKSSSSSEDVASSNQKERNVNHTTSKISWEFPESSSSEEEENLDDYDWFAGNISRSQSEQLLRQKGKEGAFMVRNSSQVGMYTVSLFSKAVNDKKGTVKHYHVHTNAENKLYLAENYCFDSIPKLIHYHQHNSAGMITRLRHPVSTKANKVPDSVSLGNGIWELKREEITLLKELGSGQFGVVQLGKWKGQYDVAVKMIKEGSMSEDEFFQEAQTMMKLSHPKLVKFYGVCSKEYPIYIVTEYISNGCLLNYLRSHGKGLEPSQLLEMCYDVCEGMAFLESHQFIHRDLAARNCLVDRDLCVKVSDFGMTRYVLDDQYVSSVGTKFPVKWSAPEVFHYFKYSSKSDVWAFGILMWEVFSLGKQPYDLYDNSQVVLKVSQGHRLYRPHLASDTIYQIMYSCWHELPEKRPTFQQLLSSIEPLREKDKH
UniProt P51957, sequence (whole entry, looked up): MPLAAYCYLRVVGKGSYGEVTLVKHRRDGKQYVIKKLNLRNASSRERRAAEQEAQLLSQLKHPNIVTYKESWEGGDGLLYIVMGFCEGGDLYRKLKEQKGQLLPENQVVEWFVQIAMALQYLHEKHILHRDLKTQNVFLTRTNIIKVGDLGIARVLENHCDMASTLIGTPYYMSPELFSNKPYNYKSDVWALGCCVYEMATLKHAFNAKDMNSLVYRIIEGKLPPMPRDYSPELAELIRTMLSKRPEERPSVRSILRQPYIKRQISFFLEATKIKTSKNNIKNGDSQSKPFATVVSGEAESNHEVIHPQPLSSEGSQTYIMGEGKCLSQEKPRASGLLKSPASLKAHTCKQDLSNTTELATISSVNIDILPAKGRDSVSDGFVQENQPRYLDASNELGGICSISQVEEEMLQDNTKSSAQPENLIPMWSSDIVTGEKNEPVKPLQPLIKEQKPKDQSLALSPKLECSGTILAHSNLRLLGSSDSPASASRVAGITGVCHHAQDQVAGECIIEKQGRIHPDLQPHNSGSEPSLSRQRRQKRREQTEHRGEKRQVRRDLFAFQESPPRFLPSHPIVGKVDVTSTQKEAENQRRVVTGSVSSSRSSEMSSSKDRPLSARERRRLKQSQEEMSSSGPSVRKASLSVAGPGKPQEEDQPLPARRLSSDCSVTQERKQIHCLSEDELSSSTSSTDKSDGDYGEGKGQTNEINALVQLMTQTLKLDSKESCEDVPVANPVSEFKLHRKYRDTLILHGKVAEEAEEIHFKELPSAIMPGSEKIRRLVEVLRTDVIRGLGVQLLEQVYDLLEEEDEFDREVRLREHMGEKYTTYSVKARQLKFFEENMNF
UniProt Q13163, sequence (whole entry, looked up): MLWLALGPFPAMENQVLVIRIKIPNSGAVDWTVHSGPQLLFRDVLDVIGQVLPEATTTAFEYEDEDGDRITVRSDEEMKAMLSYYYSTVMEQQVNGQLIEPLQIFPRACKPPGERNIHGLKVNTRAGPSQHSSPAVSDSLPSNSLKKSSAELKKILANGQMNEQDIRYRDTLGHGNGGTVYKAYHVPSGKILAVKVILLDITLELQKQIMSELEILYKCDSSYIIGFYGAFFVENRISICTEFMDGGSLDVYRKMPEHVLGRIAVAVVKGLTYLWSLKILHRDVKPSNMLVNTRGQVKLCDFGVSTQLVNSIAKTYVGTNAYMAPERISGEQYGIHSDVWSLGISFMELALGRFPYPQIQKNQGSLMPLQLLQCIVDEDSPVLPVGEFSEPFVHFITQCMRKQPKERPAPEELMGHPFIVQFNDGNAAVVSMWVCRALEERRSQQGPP
UniProt P31749, sequence (whole entry, looked up): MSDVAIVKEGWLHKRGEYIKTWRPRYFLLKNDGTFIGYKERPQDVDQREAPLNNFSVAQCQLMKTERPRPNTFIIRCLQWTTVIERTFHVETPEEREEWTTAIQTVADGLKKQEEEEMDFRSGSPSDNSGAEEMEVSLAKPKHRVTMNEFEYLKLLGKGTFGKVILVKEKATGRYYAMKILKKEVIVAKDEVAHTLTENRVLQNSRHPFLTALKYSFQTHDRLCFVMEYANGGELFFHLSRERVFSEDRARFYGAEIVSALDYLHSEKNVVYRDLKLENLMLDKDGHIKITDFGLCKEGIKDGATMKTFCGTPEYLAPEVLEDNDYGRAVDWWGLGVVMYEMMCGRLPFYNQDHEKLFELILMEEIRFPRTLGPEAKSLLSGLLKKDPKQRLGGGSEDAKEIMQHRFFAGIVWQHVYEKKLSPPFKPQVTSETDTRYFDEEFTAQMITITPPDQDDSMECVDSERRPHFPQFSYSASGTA
UniProt Q96S53, sequence (whole entry, looked up): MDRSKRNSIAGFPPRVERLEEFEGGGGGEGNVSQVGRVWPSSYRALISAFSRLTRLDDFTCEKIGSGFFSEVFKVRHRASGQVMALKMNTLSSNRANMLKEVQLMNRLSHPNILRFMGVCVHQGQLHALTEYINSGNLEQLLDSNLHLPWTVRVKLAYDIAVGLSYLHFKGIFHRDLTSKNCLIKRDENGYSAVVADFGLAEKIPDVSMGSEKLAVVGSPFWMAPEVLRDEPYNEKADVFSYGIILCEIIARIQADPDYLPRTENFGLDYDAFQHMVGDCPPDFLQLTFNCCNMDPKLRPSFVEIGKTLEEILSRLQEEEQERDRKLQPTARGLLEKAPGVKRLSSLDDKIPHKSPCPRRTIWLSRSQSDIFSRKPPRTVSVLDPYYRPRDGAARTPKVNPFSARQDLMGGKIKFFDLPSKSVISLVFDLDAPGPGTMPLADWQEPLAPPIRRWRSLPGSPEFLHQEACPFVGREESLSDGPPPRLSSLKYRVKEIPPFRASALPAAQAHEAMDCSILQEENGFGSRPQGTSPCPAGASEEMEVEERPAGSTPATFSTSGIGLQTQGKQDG
UniProt P45985, sequence (whole entry, looked up): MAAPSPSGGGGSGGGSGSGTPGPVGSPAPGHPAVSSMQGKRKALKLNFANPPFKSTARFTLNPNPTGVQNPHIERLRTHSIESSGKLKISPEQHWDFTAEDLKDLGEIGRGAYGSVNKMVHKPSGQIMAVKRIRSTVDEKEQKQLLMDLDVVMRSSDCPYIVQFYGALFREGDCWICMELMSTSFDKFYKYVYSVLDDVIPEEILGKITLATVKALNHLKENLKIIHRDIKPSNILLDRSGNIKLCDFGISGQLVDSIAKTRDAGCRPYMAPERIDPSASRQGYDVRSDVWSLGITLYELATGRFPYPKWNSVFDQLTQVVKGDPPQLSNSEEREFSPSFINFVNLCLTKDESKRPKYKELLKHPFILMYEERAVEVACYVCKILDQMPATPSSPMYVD

Sample 1 — action: agonist
Target: Beta-1 adrenergic receptor (ADRB1, Homo sapiens, UniProt P08588)
UniProt P08588, sequence (whole entry, looked up): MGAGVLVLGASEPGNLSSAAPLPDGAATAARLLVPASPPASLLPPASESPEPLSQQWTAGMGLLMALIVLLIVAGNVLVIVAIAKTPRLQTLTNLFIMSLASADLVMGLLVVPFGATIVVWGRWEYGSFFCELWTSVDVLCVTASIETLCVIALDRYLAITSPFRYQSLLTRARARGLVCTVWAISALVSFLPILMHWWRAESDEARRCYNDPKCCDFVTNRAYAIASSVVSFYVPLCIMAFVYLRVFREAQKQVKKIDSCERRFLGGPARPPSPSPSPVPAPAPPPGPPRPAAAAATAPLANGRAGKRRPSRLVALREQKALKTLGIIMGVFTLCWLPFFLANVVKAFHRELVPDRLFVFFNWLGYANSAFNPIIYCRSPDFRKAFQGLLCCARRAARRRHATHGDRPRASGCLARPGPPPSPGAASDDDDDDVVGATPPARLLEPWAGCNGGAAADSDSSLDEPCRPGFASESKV
| SMILES | Emax [%] |
| --- | --- |
| CC[C@H](NC(C)C)[C@H](O)c1ccc(O)c2[nH]c(=O)ccc12 (racemic) | 98.2 |
| COC(=O)CCc1ccc(OCC(O)CNC(C)C)cc1 (centres unmarked) | 35.1 |
| CCCCCCCCNCC(O)COc1ccc(SC(C)C)cc1 (centres unmarked) | 44 |
| COc1ccccc1N1CCN(CC[C@@H]2CC[C@H](O)[C@@H](C(=O)NC(C)C)O2)CC1 | 97.7 |
| CC(COc1ccccc1)NC(C)C(O)c1ccc(O)cc1 (centres unmarked) | 90.3 |
| COC(=O)CN1CCN(c2ccccc2OC)CC1 | 32 |
| CC(C)(C)NCC(O)COc1ccccc1OCC1CCCO1 (centres unmarked) | 98.7 |
| O=C(O)Cc1ccc(OCCNC[C@H](O)c2ccccc2)cc1 | 89.7 |

Sample 2 — method: CellTiter-Glo; tested at: 1 µM; baseline: DMSO
Cell line: normal-adjacent epithelium patient-derived organoids sample G
| Structure (SMILES) | viability |
| --- | --- |
| COc1cc(Nc2nccc(-c3cnn4nc(OC)ccc34)n2)cc(C(F)(F)F)c1 | 60.3% |
| Cn1cc(-c2ccc3occ(-c4cccc(-c5ccncc5)c4)c3n2)cn1 | 119% |
| Cc1cc2c(-c3ccco3)cnc(N[C@H]3CCN(C)C[C@@H]3C(=O)NC3CCCCC3)c2[nH]c1=O | 99.8% |
| CCC(=NO)C(C)=Cc1ccc(F)c(C)c1 | 113% and 122% |
| Cc1ccc(NC(=O)Nc2cc(C(F)(F)F)ccc2F)cc1Nc1ccc2c(c1)NC(=O)/C2=C\c1ccc[nH]1 | 135% |
| CCOc1cn(-c2ccc(F)cc2C)nc1C(=O)Nc1ccc(Oc2ccnc3cc(OC)c(OC)cc23)c(F)c1 | 13.4% and 28% |
| CN1CCN(Cc2cc(NC(=O)c3ccc4c(c3)CN(c3ccccc3)CC4)cc(C(F)(F)F)c2)CC1 | 85% and 79.3% |
| CCNC(=O)c1cc2c(N3CCOC[C@H]3C)ccnc2n1C | 126% and 111% |
| COc1cccc2c1C(=O)c1c(O)c3c(c(O)c1C2=O)C[C@@](O)(C(=O)CO)C[C@@H]3O[C@H]1C[C@H](N)[C@H](O)[C@H](C)O1 | 2.6% |
| CCCCNc1ncc(-c2ccc(CN3CCOCC3)cn2)c(NC2CCC(O)CC2)n1 (centres unmarked) | 94.5% and 110% |
| COc1cccc(NC(=O)c2nc3scc(CN(C)Cc4ccccc4)c3c(=O)[nH]2)c1 | 148% and 123% |
| O=C(NCc1ccccc1)c1ccc(S(=O)(=O)NCc2ccccc2)cc1 | 93.1% and 78.9% |
| O=C(Nc1cccnn1)N1CC(CC=Cc2cncc(Oc3ccc(C(F)(F)F)cn3)n2)C1 | 114% |
| CN(C)C(=O)Cn1cc(-c2ccc(-c3nnc4ccccn34)cc2)cn1 | 132% and 113% |
| Cl.Cl.NC1(c2ccc(-c3nc4ccn5c(=O)[nH]nc5c4cc3-c3ccccc3)cc2)CCC1 | 88.7% and 88.2% |

Sample 3 — host: human; matrix: microsomes or S9; tested at: 2 µM; time: 0.5 h
| SMILES | remaining compound [%] |
| --- | --- |
| OC1(c2ccc(Br)cc2)CCNCC1 | 23.2 |
| CCOC(=O)c1[nH]c(C)c(C(=O)CN(CC(C)C)C(=O)CC)c1C | 84.6 |
| COc1ccc(C2=NOC(c3ccc(-c4nnn[nH]4)cc3)C2)cc1 (centres unmarked) | 21.9 |
| CCCC(C)N(C)S(=O)(=O)c1ccc(NS(=O)(=O)CC)c(F)c1 (centres unmarked) | 44 |
| COc1ccccc1-c1coc2cc(O)ccc2c1=O | 58.6 |
| Cc1n[nH]c(NC(=O)CCc2ncc(C(C)(C)C)o2)c1Cl | 75.6 |
| CN(CC1COc2ccccc2O1)C(=O)C1CCC(=O)NC1 (centres unmarked) | 91 |
| Nc1n[nH]c2nc(N3CCCC3)c3c(c12)CCN(C1CCCCC1)C3 | 66.7 |
| COC(=O)c1c(CC(=O)N2CCCC2C2CCCCC2)[nH]c(C(C)=O)c1C (centres unmarked) | 0.263 |

Sample 4 — read-out: enzyme activity; tested at: 5 µM; baseline: untreated control
Structure (SMILES): O=C(Nc1cnn(-c2csc(C(=O)NC3COC3)c2)c1)Nc1ccccc1Cl
| target | remaining activity [%] |
| --- | --- |
| Cyclin-dependent kinase 2, with cyclin E2 (CDK2, Homo sapiens, UniProt P24941) | 102 |
| MAP2K5 (Homo sapiens, UniProt Q13163) | 98 |
| JAK3 (Homo sapiens, UniProt P52333) | 100 |
| AKT1 (Homo sapiens, UniProt P31749) | 94 |
| MAP2K4 (Homo sapiens, UniProt P45985) | 111 |
| BMX (Homo sapiens, UniProt P51813) | 99.4 |
| NEK4 (Homo sapiens, UniProt P51957) | 107 |
| GRK4 (Homo sapiens, UniProt P32298) | 93.2 |
| HIPK3 (Homo sapiens, UniProt Q9H422) | 96.9 |
| TESK2 (Homo sapiens, UniProt Q96S53) | 91.8 |
| LATS1 (Homo sapiens, UniProt O95835) | 105 |
| RET (Homo sapiens, UniProt P07949) | 95.5 |

A few entries again (sample 2):
| Structure (SMILES) | viability |
| --- | --- |
| CCOc1cn(-c2ccc(F)cc2C)nc1C(=O)Nc1ccc(Oc2ccnc3cc(OC)c(OC)cc23)c(F)c1 | 13.4% and 28% |
| CN1CCN(Cc2cc(NC(=O)c3ccc4c(c3)CN(c3ccccc3)CC4)cc(C(F)(F)F)c2)CC1 | 85% and 79.3% |
| CCNC(=O)c1cc2c(N3CCOC[C@H]3C)ccnc2n1C | 126% and 111% |
